{"data": "Assay results from different studies", "note": "A part holds a random share of what one study measured. Numbers after ± are the reported error."}
{"data": "Block 1", "host": "mouse, PTZ-induced seizures", "route": "oral", "dose": "20 mg/kg", "reference": "valproic acid 300 mg/kg"}
{"SMILES": "O=C(O)COc1ccc(Br)cc1C=NNC(=O)Cc1ccccc1 (mixture of isomers)", "relative protection [%]": 167}
{"SMILES": "O=C(O)COc1ccc(Br)cc1/C=N/NC(=O)CNc1ccc(Cl)cc1", "relative protection [%]": 66.7}
{"SMILES": "O=C(O)COc1ccccc1/C=N/NC(=O)CNc1ccc(Cl)cc1", "relative protection [%]": 133}
{"SMILES": "Cc1ccc(C(=O)N/N=C/c2cc(Br)ccc2OCC(=O)O)cc1", "relative protection [%]": 133}
{"data": "Block 2", "target": "crk3 (Leishmania mexicana, UniProt O15851)", "read-out": "enzyme activity", "action": "inhibitor", "method": "radiometric"}
{"Compound": "CC(=O)Nc1nc2ccc(-c3cccc(C)c3)cn2n1", "IC50 [nM]": 65000}
{"Compound": "Cn1ccc2c(-c3ccc4nc(NC(=O)C5CCCCC5)nn4c3)cccc21", "IC50 [nM]": 40}
{"Compound": "COc1cc(-c2ccc3nc(NC(=O)C4CCCCC4)nn3c2)ccc1O", "IC50 [nM]": 230}
{"Compound": "Cc1cccc(-c2ccc3nc(N)nn3c2)c1", "IC50 [nM]": "> 100000"}
{"Compound": "O=C(Nc1nc2ccc(-c3cccc4[nH]ccc34)cn2n1)C1CCCCC1", "IC50 [nM]": 70}
{"Compound": "Cc1cccc(-c2ccc3nc(NC(=O)C4CCCNC4)nn3c2)c1 (centres unmarked)", "IC50 [nM]": 12000}
{"Compound": "Cc1cccc(-c2ccc3nc(NC(=O)C4CCCCC4)nn3c2)c1", "IC50 [nM]": 64}
{"Compound": "Cc1ccc(C)c(-c2ccc3nc(NC(=O)C4CCCCC4)nn3c2)c1", "IC50 [nM]": 650}
{"data": "Further values, each from its own experiment", "GRM2": "Metabotropic glutamate receptor 2 (GRM2, Homo sapiens, UniProt Q14416)", "sequence of UniProt Q14416 (whole entry, looked up)": "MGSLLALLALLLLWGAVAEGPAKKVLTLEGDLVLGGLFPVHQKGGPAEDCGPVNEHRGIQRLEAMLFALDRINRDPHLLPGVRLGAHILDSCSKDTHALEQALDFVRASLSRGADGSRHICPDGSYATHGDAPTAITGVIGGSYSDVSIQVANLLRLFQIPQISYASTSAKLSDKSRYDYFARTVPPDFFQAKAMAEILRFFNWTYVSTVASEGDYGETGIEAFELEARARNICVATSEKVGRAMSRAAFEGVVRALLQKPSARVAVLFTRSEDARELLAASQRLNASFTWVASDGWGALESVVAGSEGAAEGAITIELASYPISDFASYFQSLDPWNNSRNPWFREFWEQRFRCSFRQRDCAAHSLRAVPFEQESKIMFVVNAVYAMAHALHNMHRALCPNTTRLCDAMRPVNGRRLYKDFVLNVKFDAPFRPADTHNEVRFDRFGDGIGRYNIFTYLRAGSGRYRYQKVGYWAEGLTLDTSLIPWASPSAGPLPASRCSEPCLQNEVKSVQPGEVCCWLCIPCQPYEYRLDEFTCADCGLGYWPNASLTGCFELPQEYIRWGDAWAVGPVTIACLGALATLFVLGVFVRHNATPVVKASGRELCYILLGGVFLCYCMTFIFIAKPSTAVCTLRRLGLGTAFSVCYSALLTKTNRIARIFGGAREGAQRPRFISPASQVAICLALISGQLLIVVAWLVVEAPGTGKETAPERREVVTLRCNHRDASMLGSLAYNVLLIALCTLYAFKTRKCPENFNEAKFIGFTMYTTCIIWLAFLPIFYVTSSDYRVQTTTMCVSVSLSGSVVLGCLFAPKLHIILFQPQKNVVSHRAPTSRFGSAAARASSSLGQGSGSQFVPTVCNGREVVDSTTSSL"}
{"Compound": "CCOCc1nnc2c(C(F)(F)F)c(-c3ccc4[nH]ccc4c3)ccn12", "target or system": "GRM2", "assay": "GTPγS binding, positive allosteric modulator", "setting": "added: EC20 glutamate", "how to read": "reference: control glutamate response", "measurement": "Emax", "result": "269 ± 11%"}
{"Compound": "O=C(N[C@@H](CC1CCCCC1)C(=O)N[C@@H](C[C@@H]1CCNC1=O)C(O)S(=O)(=O)O)OCc1ccccc1 (some centres unmarked)", "target or system": "feline coronavirus", "test system": "CRFK, FIPV-1146", "how to read": "reference: CC50 over EC50", "measurement": "therapeutic index", "result": "> 7500"}
{"Compound": "CCCCn1ccn2c(-c3ccc(NC4CCOCC4)c(Cl)c3)c(C)nc2c1=O", "target or system": "GRM2", "assay": "GTPγS binding, positive allosteric modulator", "setting": "added: EC20 glutamate", "measurement": "EC50", "result": "72 nM"}
{"Compound": "Cc1ccc(Oc2ccc(-c3ccn4c(CC5CC5)nnc4c3C(F)(F)F)cc2F)c(C)n1", "test system": "male Sprague Dawley rat, plasma", "setting": "subcutaneous, 10 mg/kg, 1 h, 20% HP-β-CD vehicle pH 3", "measurement": "plasma concentration", "result": "564 ng/mL"}
{"Compound": "CCCCn1ccn2c(-c3ccc(Oc4ccnc(C)c4)c(F)c3)c(C)nc2c1=O", "target or system": "GRM2", "assay": "agonist", "setting": "no glutamate", "measurement": "EC50", "result": "575 nM"}
{"note": "Excerpt of the above (block 1):"}
{"SMILES": "O=C(O)COc1ccc(Br)cc1C=NNC(=O)Cc1ccccc1 (mixture of isomers)", "relative protection [%]": 167}
{"SMILES": "O=C(O)COc1ccc(Br)cc1/C=N/NC(=O)CNc1ccc(Cl)cc1", "relative protection [%]": 66.7}
{"SMILES": "O=C(O)COc1ccccc1/C=N/NC(=O)CNc1ccc(Cl)cc1", "relative protection [%]": 133}
